Measured values collected from several papers.
A part holds a random share of what one study measured. Substitutions count along the parent as printed.

Study 1
Target: ABI1, truncated, D143A, DHFR fusion (Arabidopsis thaliana)
Method: DHFR PCA, deep sequencing
Matrix: yeast
Setting: methotrexate growth selection, single substitutions
Together with: (+)-ABA 0.0091 µM
Baseline: wild-type fitted maximum
Direction: higher = stronger binding
Endpoint: relative binding score
Starting sequence: PYL1, truncated, DHFR fusion (Arabidopsis thaliana); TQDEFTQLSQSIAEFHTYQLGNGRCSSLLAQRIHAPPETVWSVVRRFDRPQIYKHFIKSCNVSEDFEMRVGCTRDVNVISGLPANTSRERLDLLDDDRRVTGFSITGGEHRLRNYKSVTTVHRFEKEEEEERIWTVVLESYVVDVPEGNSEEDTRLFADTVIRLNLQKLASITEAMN
F56T: -1.5%
R45G: -0.348%
L164R: 0.575%
R90G: -2.5%
L29N: -0.177%
A35F: -0.949%
R163Q: 24.3%
E89L: 2.97%
V43M: 4.9%
W41T: 0.155%
A84Y: 105%
P36H: 28.8%
V161D: 2.18%
A35H: -5.39%

Study 2
Target: CEBPD, bZIP domain (human)
Method: DHFR protein complementation
Matrix: yeast
Setting: single substitutions, most at no-binding floor
Baseline: wild-type JUN-FOS pair
Direction: higher = stronger binding
Endpoint: binding fitness
Starting sequence: JUN, bZIP domain (human); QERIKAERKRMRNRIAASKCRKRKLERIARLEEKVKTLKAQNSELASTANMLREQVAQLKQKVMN; partner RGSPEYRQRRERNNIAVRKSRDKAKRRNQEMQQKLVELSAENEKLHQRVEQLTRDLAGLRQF
L45D: -1.5 natural log
E44R: -1.36 natural log
A29G: -1.35 natural log
L45S: -1.44 natural log
T48K: -1.24 natural log
Q41L: -1.44 natural log
N42P: -1.49 natural log
A40F: -1.27 natural log
R30V: -1.33 natural log

Study 3
Target: Prothrombin, mature alpha-thrombin (F2, Homo sapiens, UniProt P00734)
Method: aptamer microarray, sandwich
Molecule type: DNA with 2'F-ANA
Matrix: in vitro
Concentration: 200 nM
Setting: whole 15-mer aptamer, many near background
Together with: Cy3 exosite-II aptamer, 400 nM
Direction: higher = stronger binding
Endpoint: mean fluorescence intensity
Sequence: GGTTGGTGTGGTTGG
2'F-ANA at 1 2 7 9 12 13 14 15: 79.3 a.u.
2'F-ANA at 3 4 5 6 7 10 13 15: 47.6 a.u.
2'F-ANA at 1 2 3 5 7 8 9 10 12 15: 50.8 a.u.
2'F-ANA at 1 3 8 9 10 11 14 15: 58.8 a.u.
2'F-ANA at 1 2 6 10 11 13 14 15: 51.3 a.u.
2'F-ANA at 2 4 5 8 10 11 12: 48.9 a.u.
2'F-ANA at 2 3 5 8 9 10 11 14: 119 a.u.
2'F-ANA at 1 4 5 7 8 12 13 14 15: 49.2 a.u.
2'F-ANA at 3 4 5 8 10 11 14: 86.6 a.u.
2'F-ANA at 4 5 9 11 15: 53.4 a.u.
2'F-ANA at 2 4 5 6 7 8 9 11 12 15: 99.9 a.u.
2'F-ANA at 1 2 3 6 7 8 11 12: 382 a.u.
2'F-ANA at 2 3 4 6 7 11 13 14 15: 211 a.u.
2'F-ANA at 2 5 7 12 15: 156 a.u.
2'F-ANA at 1 3 7 8 10 11 14: 99.5 a.u.
2'F-ANA at 1 2 6 9 12 14 15: 57.5 a.u.
2'F-ANA at 1 3 4 8 9 10 12 13: 67.5 a.u.
2'F-ANA at 1 4 6 9 11 12 13 14 15: 50.9 a.u.

Study 4
Target: CCNA2, cyclin fold, Cln2 fusion (human)
Method: yeast growth competition, sequencing
Matrix: yeast
Setting: strong parent motif
Baseline: not given
Direction: higher = stronger binding
Endpoint: normalised enrichment score
Starting sequence: CDKN1A docking peptide (human); SKACRRLFGPVDS
C4A: 5.44
P10G: 5.3
K2R: 5.76
G9S: 5.5
K2I: 4.4
R6T: 4.18
A3N: 0.44
P10Y: 5.1
C4M: 3.37
G9V: 5.86
C4F: 2.66
G9W: 5.84
V11R: 5.5
D12G: 5.31
F8I: 1.08
F8V: 0.941
C4T: 3

A few entries again (study 4):
K2I: 4.4
K2R: 5.76
P10Y: 5.1
G9S: 5.5
G9W: 5.84
C4M: 3.37
